Experimental data pooled from the literature.
Compare with care: the assays were run in different laboratories. ± gives the spread as reported. ≈ marks a conversion by molar mass, not a printed value.

C[C@H](C(=O)N[C@H]1COc2ccccc2[C@@H]1S(C)(=O)=O)c1ccc(F)cc1 — inhibition (GABAA central, rat; binding; 10 µM, Eurofins selectivity panel, with: muscimol): 7%
CC[C@H](C)[C@H](NC(=O)[C@H](C)NC(=O)[C@H](CCCCN)NC(=O)[C@H](CC(C)C)NC(=O)[C@H](C)NC(=O)[C@@H](NC(=O)[C@H](Cc1c[nH]cn1)NC(=O)[C@H](CC(C)C)NC(=O)[C@@H](NC(=O)[C@@H](NC(=O)[C@H](CCCCN)NC(=O)[C@H](C)NC(=O)[C@H](C)NC(=O)[C@H](CO)NC(=O)[C@H](CCCCN)NC(=O)[C@H](Cc1ccccc1)NC(=O)[C@@H](NC(=O)[C@H](CCCCN)NC(=O)[C@H](CC(C)C)NC(=O)[C@H](Cc1ccccc1)NC(=O)[C@H](CO)NC(=O)[C@H](CCCCN)NC(=O)[C@H](Cc1c[nH]c2ccccc12)NC(=O)[C@H](CCCCN)NC(C)=O)[C@@H](C)O)[C@@H](C)O)C(C)C)[C@@H](C)O)C(=O)N[C@@H](CO)C(=O)N[C@@H](CO)C(N)=O — MBC50 (Acinetobacter baumannii; ATCC 19606): 2 mg/L (≈ 0.682 µM)
COc1c(CCC[P+](c2ccccc2)(c2ccccc2)c2ccccc2)cc2c(c1OC)OCO2.[I-] — TGI (SN12C; SRB): -4.98 log M
CS(=O)(=O)CCCn1c(Cn2c(=O)n(CC(F)(F)F)c3ccncc32)cc2cc(Cl)ccc21 — LS mean difference vs placebo (respiratory syncytial virus; RT-qPCR; hospitalized infants 1-24 months, nasal swab; oral, 6, 4.5 or 3 mg/kg daily, day 4, mid dose by age cohort; reference: placebo): -1.13 log10 copies/mL
CN1CCN(S(=O)(=O)c2cc([N+](=O)[O-])ccc2N(CCOS(C)(=O)=O)CCOS(C)(=O)=O)CC1 — EFS delay (T-C) (NSG mice, sample DB PDX; intraperitoneal, 25 mg/kg weekly x3; reference: vehicle): 49 days
O=C(NNc1ccc(Cl)cc1)c1nnc(C23CC4CC(CC(C4)C2)C3)o1 — EC50 (Fusarium graminearum; fungal growth, inhibitor): 0.86 ± 0.05 mg/L (≈ 2.31 µM)
CCCCC1(CCCC)CN(c2ccccc2)c2cc(SC)c(OCC(=O)N[C@@H](C(=O)NCC(=O)O)c3ccccc3)cc2S(=O)(=O)C1 — serum LDL-C (measured: LDL cholesterol; human, serum; 2.5 mg once daily, day 8): 100 mg/dL
CC[C@H](C)[C@@H]1NC(=O)[C@@H]2CCCN2C(=O)[C@H](CC(C)C)NC(=O)[C@H](CC(C)C)NC(=O)CNC(=O)[C@@H](NC(=O)[C@@H](NC(=O)[C@H](CC(=O)O)NC(=O)CNC(=O)[C@@H](NC(=O)[C@H](C)NC(=O)CNC(=O)[C@H](CCCCN)NC(=O)[C@H](CC(C)C)NC(=O)[C@H](CC(C)C)NC(=O)[C@H](CCCCN)NC(=O)CNC(=O)[C@@H](NC(=O)[C@@H](N)CC(C)C)C(C)C)C(C)C)C(C)C)CSSC[C@@H](C(=O)O)NC1=O — log2 fold change (RNA-seq, measured: Mcemp1; mouse, traumatic brain injury model, frontal cortex and hippocampus; dose not given; reference: TBI alone): -3.68
COc1cc(CCC[P+](c2ccccc2)(c2ccccc2)c2ccccc2)c(OC)c2c1OCO2.[I-] — TGI (HOP-62; SRB): -4.95 log M
Nc1ncnc2c1ncn2[C@@H]1O[C@@H]2COP(=O)(O)O[C@H]3[C@@H](O)[C@H](n4cnc5c(=O)[nH]cnc54)O[C@@H]3COP(=O)(O)O[C@H]2[C@H]1O — fold enrichment (Zika virus; upregulated Reactome pathway, RNA sequencing, measured: Interferon alpha/beta signaling (R-HSA-909733); HFF-1; reference: ZIKV-infected untreated): 18.6
